# Measurements pooled from the literature.
# Compare with care: the assays were run in different laboratories. Numbers after ± are the reported error.
Structure (SMILES),cell line,assay,conditions,IC50
CCOC(=O)c1nn(-c2ccccc2)c2nc3nc(-c4ccccc4)cc(-c4ccc5ccccc5n4)c3c(=O)n12,RPE-1,"cell growth or viability, MTT",48 h,25.5 µM
Cc1c(C)c(C)[c-](C)c1C.Cc1ccc[c-]c1-c1ccccn1.[Cl-].[Ir+3],A2780 cells,"cell growth, SRB","24 h exposure, 72 h recovery",1.18 ± 0.08 µM
C=CC(=O)Nc1ccc(-c2c(-c3ccc(Oc4ccccc4)cc3)c3c(N)ncnc3n2C)cc1,SNU-16,"cell growth or viability, ATP luminescence",96 h,0.005 µM
CCOC(=O)c1ccc2c(c1)n(CC)[c]([Au-]([Cl])([Cl])[Cl])[n+]2CC,RC-124 kidney epithelial,"cell proliferation, crystal violet staining",96 h,5.5 ± 0.9 µM
Cc1nn(C)c(O)c1-c1nc2cc(Cl)c(Cl)cc2[nH]c1=O,TF-1,"cell growth or viability, resazurin",72 h,15.5 µM
CC1OC(OCC2OC(Oc3cc(O)c4c(=O)cc(-c5ccc(O)c(O)c5)oc4c3)C(O)C(O)C2O)C(O)C(O)C1O (stereo not shown),AML12,"cell growth or viability, resazurin",72 h,> 100 µM
COc1cccc(Cc2cc(C)nn(S(=O)(=O)c3cccc4c(N(C)C)cccc34)c2=O)c1,human neutrophils,"calcium flux, antagonist","10 min preincubation, with: fMLF 5 nM",19.3 ± 4.98 µM
COC(=O)[C@@]1(C)C=C(C(=O)NCc2cccc(C(=O)Nc3ccc(Nc4nccc(-c5cccnc5)n4)c(C)c3)c2)C(=O)CC1,SH-SY5Y MKK7-ACT,"c-Jun phosphorylation, inhibitor, western blot, refers to: phospho-c-Jun Ser73","6 h, with: doxycycline",4.32 ± 1.38 µM
Cc1cc(C=O)cc(C)c1Oc1cc(Nc2ccc(C#N)cc2)nc2cnccc12,MOLT-3,,48 h,9.1 ± 2 µM
C=CC(OC(C)=O)c1cc(OC)cc(OC)c1 (stereo not shown),RT-112,MTT,24 h,> 50 µM
O=[N+]([O-])c1ccc(/N=N/c2ccc(O)c(O)c2)cc1,HEK293T,"cell growth, PrestoBlue",72 h,4.3 µM
Cc1c(C)c(C)[c-](C)c1C.Cc1ccc(-c2[c-]cccc2)nc1.[Cl-].[Ir+3],A2780 cells,"cell growth, SRB","24 h exposure, 72 h recovery",1.26 ± 0.01 µM
CC(C)Cc1ccc(C(C)C(=O)[O][Pt]([NH2])([NH2])([Cl])([Cl])[O]C(=O)CCCc2ccccc2)cc1 (stereo not shown),C13 cisplatin-resistant,"cytotoxicity, MTT",72 h,1.65 ± 0.11 µM
S=c1n(-c2ccccc2)c2c3ccccc3nc3[n+]2[n]1[Ir-3]12([S]3)([c]3ccccc3-c3sc4ccccc4[n+]31)[c]1ccccc1-c1sc3ccccc3[n+]12,MRC9,"cell viability, MTT",dark,> 50 µM
[Cl][Au-]1([Cl])[N+](=P(c2ccccc2)(c2ccccc2)C2C=CC=C2)Cc2cccc[n+]21.[Cl][Au-]1([Cl])[N+](=P(c2ccccc2)(c2ccccc2)C2C=CC=C2)Cc2cccc[n+]21.[Fe+2].[O-][Cl+3]([O-])([O-])[O-].[O-][Cl+3]([O-])([O-])[O-],A2780cisR (cisplatin-resistant),"cell growth, MTT","74 h, 1% DMSO",2.4 ± 0.5 µM
C=CCc1ccc(O)c(-c2cc(CC=C)ccc2OCCCC[P+](c2ccccc2)(c2ccccc2)c2ccccc2)c1,UACC-62,"cell growth, IncuCyte confluence",,2.5 µM
N[C@@H](CCC(=O)N[C@@H](CS[Se]Cc1ccc(-c2cc(C(F)(F)F)nn2-c2ccc(S(N)(=O)=O)cc2)cc1)C(=O)NCC(=O)O)C(=O)O,FF2441,"cell growth or viability, MTS",,> 100 µM
O=[N+]([O-])c1ccc(C=[N+]2N=C(Nc3ccccc3)[S][Pt-]2([Cl])[Cl])s1,CRFK,cell growth or viability,,7.5 µM
C=C[C@H](OC(C)=O)c1ccc(OC(C)=O)cc1,RT-112,"cell growth or viability, MTT",24 h,14.1 µM
CC(=O)Oc1ccccc1C(=O)[O][Pt]([NH2])([NH2])([Cl])([Cl])[O]C(=O)C(Cl)Cl,C13 cisplatin-resistant,"cytotoxicity, MTT",72 h,1.66 ± 0.09 µM
Cc1cnc(Nc2cc(C)c(C)c(C)c2)nc1Nc1ccc2oc(=O)[nH]c2c1,human CD14+ monocytes,STAT6 phosphorylation,with: IL-13,0.0517 µM
CC1CC(=O)N(CCCN)N=C1c1ccc(NC(=O)N2Cc3ccncc3C2)cc1 (stereo not shown),A549-C4.4a,"cell viability, CellTiter-Glo",,> 0.3 µM
COc1ccc(/C=C/C2=[N+]3C(=C(CO)c4c(C)cc(/C=C/c5ccc(OC)cc5)n4[B-]3(C)C)C(C)=C2)cc1,RPE-1,"phototoxicity, resazurin","with: 645 nm light, 9.00 J/cm2",1.4 ± 0.6 µM
O=C(/C=C/c1ccc2c(c1)C(=O)N(CCCc1ccccc1)CC2)NO,MKN-28,"cell growth, SRB",72 h,1.4 ± 0.55 µM
Brc1ccc(Nc2nc(NN=Cc3c[nH]c4ccccc34)nc(N3CCOCC3)n2)cc1,A549 and SK-BR-3,cell growth,120 h,0.1 to 0.4 µM
Cc1cc(C#N)cc(C)c1Oc1cc(Nc2ccc(C#N)cc2)nc2ccncc12,MOLT-3,,48 h,> 128 µM
C[C@@H]1O[C@@H](NNC(=O)Nc2ccc(S(N)(=O)=O)cc2)[C@H](O)[C@H](O)[C@H]1O,HCEC,"cell growth or viability, MTT",96 h,> 100 µM
CN(C)C(=S)[S][Pd][c]1ccccc1C(=O)N=P12CN3CN(CN(C3)C1)C2,human PBMC,"cytotoxicity, MTT","24 h, 1% DMSO",186 ± 9 µM
[Cl][Pt-]1([Cl])[S]C(Nc2ccccc2)=N[N+]1=Cc1ccc(-c2ccccc2)s1,CEM human lymphocytes,cell proliferation,,53 µM
CC1=C2[O][Ru-]([Cl])[O+]=C2C=CN1CCCN1C=CC2=[O+][Ru-]([Cl])[O]C2=C1C.Cc1ccc(C(C)C)cc1.Cc1ccc(C(C)C)cc1,DAN-G,"cell growth or viability, crystal violet",96 h,> 20 µM
C=CC(OC(C)=O)c1cc(OC)c(OC(C)=O)c(OC)c1 (stereo not shown),EJ-28,MTT,24 h,> 50 µM
CC1(C)Cc2c(-c3ccccc3)c(-c3ccc(Cl)cc3)c(CC(=O)O)n2C1,mouse peritoneal macrophages,LTB4 production,with: LPS,1.6 µM
NS(=O)(=O)c1ccc(NC(=O)NN[C@@H]2OC[C@@H](O)[C@H](O)[C@H]2O)cc1,HCEC,"cell growth or viability, MTT",96 h,> 100 µM
CC(C)c1cccc(C(C)C)c1N1CCN(c2c(C(C)C)cccc2C(C)C)C1=[Se].[Cl][Au],LoVo MDR,MTT,72 h,4.2 ± 0.8 µM
COc1ccc(/C=C/C2=[N+]3C(=C(C=O)c4c(C)c(Br)c(/C=C/c5ccc(OC)cc5)n4[B-]3(F)F)C(C)=C2Br)cc1,RPE-1,"phototoxicity, resazurin","with: 645 nm light, 9.00 J/cm2",2.2 ± 0.1 µM
CCC12CCc3c(c4ccccc4n3C)CCN(CC3OC31)C2 (stereo not shown),BV-2,"cell growth or viability, MTT",,73.1 µM
CCCCCCCCC=CCCCCCCCC(=O)OCC1OC(n2ccc(N)nc2=O)C(F)(F)C1O (stereo not shown),THX,cell growth,with: dipyridamole 4 µg/mL,0.0053 ± 0.0037 µM
C1=[N+]2CCCC[N+]3=Cc4ccc5[n]4[Au-]23[n]2c1ccc2-c1nc2ccccc2nc1-5.F[P-](F)(F)(F)(F)F,prostate cancer cell lines,,NCI60 panel mean,16 µM
COc1ccc(/C=C/C2=[N+]3C(=C(COC(C)=O)c4c(C)cc(/C=C/c5ccc(OC)cc5)n4[B-]3(F)F)C(C)=C2)cc1,RPE-1,"cell growth or viability, resazurin",dark,> 100 µM
CCCCCCCCCCCCCCCCCC(=O)N[C@@H](CCCCN)C(=O)N[C@@H](CCCCN)C(=O)N[C@@H](CCCCN)C(=O)N[C@@H](CCCCN)C(=O)N[C@@H](CCCCN)C(N)=O,HCEC,cytotoxicity,,28.3 µg/mL
